Results from different studies.
Target: Amine oxidase [flavin-containing] A (MAOA, Homo sapiens, UniProt P21397)
UniProt P21397, sequence (whole entry, looked up): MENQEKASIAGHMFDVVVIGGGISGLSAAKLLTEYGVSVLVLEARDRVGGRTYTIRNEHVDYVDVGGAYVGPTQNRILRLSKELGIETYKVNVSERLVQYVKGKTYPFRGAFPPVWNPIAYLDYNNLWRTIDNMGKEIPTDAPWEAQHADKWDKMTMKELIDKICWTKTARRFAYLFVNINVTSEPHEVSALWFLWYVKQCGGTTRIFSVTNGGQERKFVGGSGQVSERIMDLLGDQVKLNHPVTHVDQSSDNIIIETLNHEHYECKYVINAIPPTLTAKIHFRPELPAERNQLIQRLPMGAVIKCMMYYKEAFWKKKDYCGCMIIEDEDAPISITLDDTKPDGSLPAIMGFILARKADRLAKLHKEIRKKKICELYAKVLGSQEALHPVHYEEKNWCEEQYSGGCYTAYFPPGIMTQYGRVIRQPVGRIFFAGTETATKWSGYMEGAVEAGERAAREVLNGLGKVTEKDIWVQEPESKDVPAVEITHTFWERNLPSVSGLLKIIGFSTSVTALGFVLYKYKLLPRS
Mode: inhibitor

With `COc1c(O)c(C)cc2c1C(=O)c1c(O)cc(O)cc1C2=O` the IC50 was 154 µM (enzyme activity).
`CCC/C=C1\OC(=O)c2ccccc21` has an IC50 of 97 µM (enzyme activity, fluorescence).
`O=C(/C=C/c1ccc2c(c1)OCCO2)c1ccc(Cl)s1` gave an IC50 of over 40 µM (enzyme activity, fluorescence).
For `COc1cc(OC)c2c(c1)C(N)(c1cc(C)cc(OC)c1OC)OC2=O` (racemic), the IC50 was over 100 µM (20 min, pH 7.4, 37 °C, added: kynuramine 30 µM).
With `COc1cc(OC2OC(COC3OC(CO)C(O)C(O)C3O)C(O)C(O)C2O)c2c(O)c3c(=O)cc(C)oc3cc2c1` (stereo not drawn) the IC50 was over 100 µM (enzyme activity).
`CCCC[C@@H]1OC(=O)C2=C1CCC=C2` has an IC50 of 47.6 µM (enzyme activity, fluorescence).
`O=C(/C=C/c1ccc2c(c1)OCO2)c1ccc(Br)s1` gave an IC50 of over 40 µM (enzyme activity, fluorescence).
`COc1cc(OC2OC(COC3OC(CO)C(O)C(OC4OC(COC5OC(CO)C(O)C(O)C5O)C(O)C(O)C4O)C3O)C(O)C(O)C2O)c2c(O)c3c(=O)cc(C)oc3cc2c1` (stereo not drawn) gave an IC50 of 40.6 µM (enzyme activity).
With `COc1cc(OC2OC(CO)C(O)C(O)C2O)c2c(OC)c(C(C)=O)c(OC3OCC(O)(CO)C3O)cc2c1` (stereo not drawn) the IC50 was 96.2 µM (enzyme activity).
The IC50 of `COc1cc(OC)c2c(c1)C(c1cc(C)cc(OC)c1OC)NC2=O` (racemic) is reported as over 100 µM (20 min, pH 7.4, 37 °C, added: kynuramine 30 µM).
For `COc1c(OC2OC(CO)C(O)C(O)C2O)cc2c(c1O)C(=O)c1c(cc(C)c(O)c1OC)C2=O` (stereo not drawn), the IC50 was 39.6 µM (enzyme activity).
With `COc1ccc2c(c1)/C(=N/N=C/c1ccc(OCc3cccc(F)c3)cc1)C(=O)N2` the IC50 was over 40 µM (enzyme activity, fluorescence).
For `COc1cc(C)cc(C2NC(=O)c3c(O)cc(O)cc32)c1OC` (racemic), the IC50 was 75.4 µM (enzyme activity, fluorescence; pH 7.4).
`O=C(/C=C/c1ccc2c(c1)OCO2)c1ccc(Cl)s1` gave an IC50 of over 40 µM (enzyme activity, fluorescence).
For `O=C1Nc2ccc(Br)cc2/C1=N/N=C/c1ccc(OCc2ccccc2)cc1`, the IC50 was over 40 µM (enzyme activity, fluorescence).
For `CCCCC1OC(=O)C2=CCCCC21` (stereo not drawn), the IC50 was 80.1 µM (enzyme activity, fluorescence).
With `Cc1ccc2c(c1)/C(=N/N=C/c1ccc(OCc3cccc(F)c3)cc1)C(=O)N2` the IC50 was over 40 µM (enzyme activity, fluorescence).
For `COc1cc2c(c(OC)c1OC)C(=O)c1c(cc(C)c(OC3OC(CO)C(O)C(O)C3O)c1OC)C2=O` (stereo not drawn), the IC50 was 207 µM (enzyme activity).
For `O=C1Nc2ccc(Cl)cc2/C1=N/N=C/c1ccc(OCc2cccc(F)c2)cc1`, the IC50 was over 40 µM (enzyme activity, fluorescence).
`COc1cc(/C=C/C(=O)O)ccc1O` has an IC50 of 35.8 µM (enzyme activity, fluorescence).
`O=C(/C=C/c1ccc2c(c1)OCCO2)c1ccc[nH]1` gave an IC50 of over 40 µM (enzyme activity, fluorescence).
The IC50 of `O=C1Nc2ccc(F)cc2/C1=N/N=C/c1ccc(OCc2cccc(F)c2)cc1` is reported as 10.9 µM (enzyme activity, fluorescence).
The IC50 of `O=C(/C=C/c1ccc2c(c1)OCCO2)c1ccc(Br)s1` is reported as over 40 µM (enzyme activity, fluorescence).
The IC50 of `Cc1ccc2c(c1)/C(=N/N=C/c1cccc(OCc3ccccc3)c1)C(=O)N2` is reported as 14.4 µM (enzyme activity, fluorescence).
The IC50 of `COc1cc(OC)c2c(c1)C(OC)(c1cc(C)cc(OC)c1OC)OC2=O` (racemic) is reported as 38.5 µM (enzyme activity, fluorescence; pH 7.4).
For `Cc1cc(=O)c2c(O)c3c(OC4OC(CO)C(O)C(O)C4O)cccc3cc2o1` (stereo not drawn), the IC50 was 11.3 µM (enzyme activity).
`COc1cc(C)cc(C2NC(=O)c3c(OC)cc(O)cc32)c1O` (racemic) gave an IC50 of 100 µM (enzyme activity, fluorescence; pH 7.4).
For `O=C1Nc2ccc(Cl)cc2/C1=N/N=C/c1ccc(OCc2ccccc2)cc1`, the IC50 was over 40 µM (enzyme activity, fluorescence).
For `CCC/C=C1\OC(=O)C2=C1CC[C@H](O)[C@H]2O`, the IC50 was 186 µM (enzyme activity, fluorescence).
`COc1cc(OC)cc(C(=O)c2cc(C)cc(OC)c2OC)c1` has an IC50 of 11 µM (enzyme activity, fluorescence; pH 7.4).
